Experimental data collected from several papers.
Each numbered part is a random draw from the data of one study; scales do not carry over between parts.

Set 1 — method: protein-binding microarray; form: double-stranded DNA, one strand shown; medium: in vitro; concentration: 250 nM; notes: 60-bp whole probe; added: salmon DNA 0.4 mg/ml; relative to: random background probes; reading: higher = stronger binding; shared flanks, not repeated: GCCTAGCAC … GTCTTGATTCGCTTGACGCTGCTG
Target: Interferon regulatory factor 5, full length, phosphomimetic (IRF5, Homo sapiens, UniProt Q13568-2, residues 1-514, K96S/S451D/S453D/S456D/S462D)
| Oligonucleotide | log fluorescence |
| --- | --- |
| TCATATTCATATATATAACTGTGCTAG | 1.19 z-score |
| GAACCTTGGGCTCTAGGTTCGTGCTAG | -0.381 z-score |
| TTACGTCTCGGTATCGGTTAGTGCTAG | 5.93 z-score |
| GACGATGTCGGGACTGGAGACGTGCTA | -0.438 z-score |
| GCTTTTTCCCCCCTCACGCAGTGCTAG | 0.577 z-score |
| TTAGGACTGGGGTATCCGTTAGTGCTA | -0.333 z-score |

Set 2 — method: universal PBM; form: double-stranded DNA, one strand shown; medium: in vitro; concentration: not given; reading: higher = stronger binding
Target: Sal-like protein 4, full length isoform B (SALL4, Homo sapiens, UniProt Q9UJQ4-2, residues 1-616)
Notes: 8-mer, flanks averaged, mean of replicates
Construct (chain): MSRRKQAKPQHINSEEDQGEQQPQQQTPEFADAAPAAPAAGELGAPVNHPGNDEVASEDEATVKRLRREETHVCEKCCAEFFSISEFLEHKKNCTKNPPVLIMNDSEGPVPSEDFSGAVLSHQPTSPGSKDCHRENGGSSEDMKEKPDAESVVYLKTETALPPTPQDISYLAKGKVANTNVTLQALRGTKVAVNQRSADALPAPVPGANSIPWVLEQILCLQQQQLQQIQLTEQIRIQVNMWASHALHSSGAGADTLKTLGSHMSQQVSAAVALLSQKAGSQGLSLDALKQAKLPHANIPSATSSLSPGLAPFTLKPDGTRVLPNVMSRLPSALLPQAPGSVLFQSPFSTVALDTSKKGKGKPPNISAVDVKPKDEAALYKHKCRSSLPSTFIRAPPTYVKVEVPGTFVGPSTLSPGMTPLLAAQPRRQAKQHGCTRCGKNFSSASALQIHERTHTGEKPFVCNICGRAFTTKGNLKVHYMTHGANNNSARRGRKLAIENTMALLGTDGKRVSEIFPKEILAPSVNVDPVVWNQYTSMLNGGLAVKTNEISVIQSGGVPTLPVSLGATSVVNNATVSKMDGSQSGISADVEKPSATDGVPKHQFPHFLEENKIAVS
| Oligonucleotide | E-score |
| --- | --- |
| CAGGTTCA | -0.12 |
| AATCCGCG | -0.23 |
| CAAGAATC | 0.0757 |
| CGAAAATC | 0.161 |
| ATTGATAG | 0.218 |
| ATTCATTG | 0.143 |

Set 3 — method: RNA Bind-n-Seq; form: RNA; medium: in vitro; concentration: 365 nM; relative to: no-protein control; reading: higher = stronger binding
Target: RNA binding protein fox-1 homolog 2, RRM domain, GST-SBP tag (RBFOX2, Homo sapiens, UniProt O43251-10, residues 100-194)
Notes: natural RNA segment, single round, ends assumed
Construct (chain): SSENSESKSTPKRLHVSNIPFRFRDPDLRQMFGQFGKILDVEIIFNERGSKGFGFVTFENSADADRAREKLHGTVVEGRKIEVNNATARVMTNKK
| Oligonucleotide | RBNS enrichment (R) |
| --- | --- |
| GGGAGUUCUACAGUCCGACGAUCAUGUUAGGCACUCCUCUGACCUGAAUAAGUUUCCUUUCUCCUUUAUCAGUUCAAGGUGGGAGUCUUUGCUCUCAUCACCUGCAGUUCCACCUUGUGUUCAGAAAGCAAAAUGGAAUUCUCGGGUGCCAA | 0.356 |
| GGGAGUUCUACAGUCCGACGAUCCUGCACUGCCCUAGCAGAGGUUCUCUCCCCUGCCGCUGAGAGGGCCUCUCCCCUGCAGCAAACGUUUGCCUGGGCAUUGAGGCAUUUCCAUACAUCUUCUGAAAACUAGGUGGAAUUCUCGGGUGCCAA | 0.561 |
| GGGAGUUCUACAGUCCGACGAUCUGAGGGCAGCUGCUCUCCCAGCAUGUGCUGGCCACUCCAUCCCAAAAGCCCCCAUCAGAACUGCUGGUACUUGAAUCCUCAGAUACUUUAUAGGAGCCCUUGAAUGAAGCUGGAAUUCUCGGGUGCCAA | 1.97 |
| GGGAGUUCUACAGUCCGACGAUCUUAGAAGGAGAGUCCUAACAUGAAAUGGUCAUCUCUUAGAUUUGGGAGGAAGGAAGCCACUGUUAACUGUGUAGUGUUACAGCAUAUUGCACAAAAGGUUUUGGUUUUGGUGGAAUUCUCGGGUGCCAA | 0.339 |
| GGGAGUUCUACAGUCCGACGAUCUGCCACAGACAGCUACCCCCAGAAGGGUCAAUGUUGGGAGUGGUUGUGGCUCUGAGCUGCUCUACAGAGCUUCAGUGUGAGAGGAUCGAGCCAUUGAAAGCUCAUUACCAUGGAAUUCUCGGGUGCCAA | 0.81 |
| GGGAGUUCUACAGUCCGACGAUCAAAAAAUGGUUUAGAUAUAUUUAUAAUAAACUGACUUAAGAGUUUUCUAUAAGAAGAAAAUUAAGACCACUUAUUUGAAAACAAAGAUGAAAUGUCACCACCCGUUUGCGUGGAAUUCUCGGGUGCCAA | 0.564 |

Other studies, line by line
| Molecule | target | assay | test system | setting | scale | endpoint | result |
| --- | --- | --- | --- | --- | --- | --- | --- |
| PhoQ, residues 284 288 289 292 302 303 SLGVVW | PhoP, residues 12 14 15 18 19 SEGLL (Escherichia coli, UniProt P23836) | Sort-seq, refers to: YFP reporter | E. coli | PhoQ-PhoP variant library, added: 10 µM Mg2+ | relative to: high Mg2+ state, higher = stronger signaling | fold induction | 9.57 |
